# Measured values pooled from the literature.
# ± marks the error that the study gave.
Structure (SMILES),assay,test system,setting,how to read,retention time
Cc1c(C)c(C)[c-](C)c1C.Cc1ccc[c-]c1-c1ccccn1.[Cl-].[Ir+3],RP-HPLC,"C18 column, water/acetonitrile",with: 50 mM NaCl,longer = more hydrophobic,20.4 ± 0.2 min
CC(C)C[C@@H]1NC(=O)[C@H](CCCCN)NC(=O)[C@H](C(C)C)NC(=O)[C@@H]2CCCN2C(=O)[C@@H](Cc2ccc(O)cc2)NC(=O)[C@H](CC(C)C)NC(=O)[C@H](CCCCN)NC(=O)[C@H](C(C)C)NC(=O)[C@H](CCCCN)NC(=O)[C@H](CC(C)C)NC(=O)[C@@H]2CCCN2C(=O)[C@@H](Cc2ccc(O)cc2)NC(=O)[C@H](CCCCN)NC1=O,RP-HPLC C8,,"70 °C, water/acetonitrile TFA gradient",,25.8 min
CC[C@@H](C)[C@@H](NC(=O)[C@@H](C)NC(=O)[C@@H](CCCCN)NC(=O)[C@@H](CC(C)C)NC(=O)[C@@H](CC(C)C)NC(=O)[C@H](NC(=O)[C@@H](CCCCN)NC(=O)[C@@H](CC(C)C)NC(=O)[C@@H](C)NC(=O)[C@@H](CCCCN)NC(=O)[C@@H](CCCCN)NC(=O)[C@@H](CCCCN)NC(=O)[C@@H](C)NC(=O)[C@@H](CCCCN)NC(=O)[C@@H](CO)NC(=O)[C@@H](Cc1ccccc1)NC(=O)[C@H](NC(=O)[C@@H](CCCCN)NC(=O)[C@@H](CC(C)C)NC(=O)[C@@H](Cc1ccccc1)NC(=O)[C@@H](CO)NC(=O)[C@@H](CCCCN)NC(=O)[C@@H](Cc1c[nH]c2ccccc12)NC(=O)[C@@H](CCCCN)NC(C)=O)[C@H](C)O)[C@H](C)O)C(=O)N[C@H](CO)C(=O)N[C@H](CCCCN)C(N)=O,RP-HPLC C8,,"pH 2, hydrophobicity measure",,90.7 min
CC(C)C[C@@H]1NC(=O)[C@H](CCCCN)NC(=O)[C@H](C(C)C)NC(=O)[C@@H]2CCCN2C(=O)[C@@H](Cc2ccc(O)cc2)NC(=O)[C@H](CC(C)C)NC(=O)[C@H](CCCCN)NC(=O)[C@H](C(C)C)NC(=O)[C@H](CCCCN)NC(=O)[C@H](CC(C)C)NC(=O)[C@H](CCCCN)NC(=O)[C@@H]2CCCN2C(=O)[C@@H](Cc2ccc(O)cc2)NC(=O)[C@H](CCCCN)NC(=O)[C@H](CCCCN)NC1=O,RP-HPLC C8,,"70 °C, water/acetonitrile TFA gradient",,21.6 min
Cc1c(C)c(C)[c-](C)c1C.Fc1c[c-]c(-c2ccccn2)cc1.[Cl-].[Ir+3],RP-HPLC,"C18 column, water/acetonitrile",with: 50 mM NaCl,longer = more hydrophobic,18.74 ± 0.05 min
CC(C)C[C@@H]1NC(=O)[C@H](CCCCN)NC(=O)[C@H](C(C)C)NC(=O)[C@H](CCCCN)NC(=O)[C@H](CC(C)C)NC(=O)[C@@H]2CCCN2C(=O)[C@@H](Cc2ccc(O)cc2)NC(=O)[C@H](C(C)C)NC(=O)[C@H](CCCCN)NC(=O)[C@H](CCCCN)NC(=O)[C@H](C(C)C)NC(=O)[C@@H]2CCCN2C(=O)[C@@H](Cc2ccc(O)cc2)NC1=O,RP-HPLC C8,,"70 °C, water/acetonitrile TFA gradient",,26.1 min
CCCCCCCCCCCCCCCCCC(=O)N[C@@H](CCCNC(=N)N)C(=O)N[C@@H](CCCNC(=N)N)C(=O)N[C@@H](CCCNC(=N)N)C(=O)N[C@@H](CCCNC(=N)N)C(=O)N[C@@H](CCCNC(=N)N)C(N)=O,RP-HPLC C18,,,,9.51 min
CC[C@@H](C)[C@@H](NC(=O)[C@@H](C)NC(=O)[C@@H](CCCCN)NC(=O)[C@@H](CC(C)C)NC(=O)[C@@H](CC(C)C)NC(=O)[C@H](NC(=O)[C@@H](CCCCN)NC(=O)[C@@H](CC(C)C)NC(=O)[C@@H](CCCCN)NC(=O)[C@@H](CCCCN)NC(=O)[C@@H](CCCCN)NC(=O)[C@@H](CCCCN)NC(=O)[C@@H](C)NC(=O)[C@@H](CCCCN)NC(=O)[C@@H](CO)NC(=O)[C@@H](Cc1ccccc1)NC(=O)[C@H](NC(=O)[C@@H](CCCCN)NC(=O)[C@@H](CC(C)C)NC(=O)[C@@H](Cc1ccccc1)NC(=O)[C@@H](CO)NC(=O)[C@@H](CCCCN)NC(=O)[C@@H](Cc1c[nH]c2ccccc12)NC(=O)[C@@H](CCCCN)NC(C)=O)[C@H](C)O)[C@H](C)O)C(=O)N[C@H](CO)C(=O)N[C@H](CCCCN)C(N)=O,RP-HPLC C8,,"pH 2, hydrophobicity measure",,81.8 min
CCCCCCCCCCCCCCCC(=O)N[C@H](C(=O)N[C@@H](CCCCN)C(=O)N[C@H](C(=O)N[C@@H](CCCCN)C(=O)N[C@H](C(=O)N[C@@H](CCCCN)C(=O)N[C@H](C(=O)N[C@@H](CCCCN)C(N)=O)C(C)C)C(C)C)C(C)C)C(C)C,RP-HPLC C18,,,,16.8 min
CC(C)C[C@H](NC(=O)[C@@H]1CSCC(=O)NCCCC[C@@H]2NC(=O)CSC[C@H](NC(=O)[C@H](CCCCN)NC2=O)C(=O)N[C@@H](CCCCN)C(=O)N[C@@H](CC(C)C)C(=O)N1)C(N)=O,analytical RP-HPLC,C18 column,"10.00 min gradient, 0.05% TFA",,2.52 min
C[C@H](NC(=O)[C@H](Cc1c[nH]c2ccccc12)NC(=O)[C@@H](N)CCCNC(=N)N)C(=O)N[C@@H](Cc1c[nH]c2ccccc12)C(=O)N[C@@H](CCCNC(=N)N)C(=O)N[C@@H](Cc1c[nH]c2ccccc12)C(=O)N[C@@H](CCC(N)=O)C(=O)N[C@@H](Cc1c[nH]c2ccccc12)C(=O)N[C@@H](CCCNC(=N)N)C(N)=O,RP-HPLC C18,,hydrophobicity measure,,6.4 min
CCCCCCCCCC(=O)N[C@@H](Cc1ccccc1)C(=O)N[C@@H](Cc1ccccc1)C(=O)N[C@@H](Cc1ccccc1)C(=O)N[C@@H](Cc1ccccc1)C(=O)N[C@@H](CCCCN)C(=O)N[C@@H](CCCCN)C(=O)N[C@@H](CCCCN)C(=O)N[C@@H](CCCCN)C(=O)N[C@@H](CCCCN)C(N)=O,RP-HPLC C18,,,,16.3 min
N=C(N)NCCC[C@@H](N)C(=O)N[C@@H](Cc1c[nH]c2ccccc12)C(=O)N[C@@H](CCC(N)=O)C(=O)N[C@@H](Cc1c[nH]c2ccccc12)C(=O)N[C@@H](CCCNC(=N)N)C(=O)N[C@@H](Cc1c[nH]c2ccccc12)C(=O)N[C@@H](CCC(N)=O)C(=O)N[C@@H](Cc1c[nH]c2ccccc12)C(=O)N[C@@H](CCCNC(=N)N)C(N)=O,"RP-HPLC, C18 column",,water/acetonitrile gradient with TFA,,6.4 min
CCCCCCCCCCCC(=O)N[C@@H](CCCCN)C(=O)N[C@@H](CCCCN)C(=O)N[C@@H](CCCCN)C(=O)N[C@@H](CCCCN)C(=O)N[C@@H](CCCCN)C(N)=O,RP-HPLC C18,,,,10.9 min
CC(C)C[C@@H]1NC(=O)[C@H](CCCCN)NC(=O)[C@H](C(C)C)NC(=O)[C@@H]2CCCN2C(=O)[C@@H](Cc2ccc(O)cc2)NC(=O)[C@H](CC(C)C)NC(=O)[C@H](CCCCN)NC(=O)[C@H](C(C)C)NC(=O)[C@H](CCCCN)NC(=O)[C@H](CC(C)C)NC(=O)[C@H](CCCCN)NC(=O)[C@@H]2CCCN2C(=O)[C@@H](Cc2ccc(O)cc2)NC(=O)[C@H](CCCCN)NC(=O)[C@H](C(C)C)NC(=O)[C@H](CCCCN)NC1=O,RP-HPLC C8,,"70 °C, water/acetonitrile TFA gradient",,22.8 min
CC[C@H](C)[C@H](NC(=O)[C@H](CCCNC(=N)N)NC(=O)[C@H](CCCCN)NC(=O)[C@H](Cc1ccc(O)cc1)NC(=O)[C@H](CC(=O)O)NC(=O)[C@H](C)NC(=O)CNC(=O)CCOCCOCCOCCNC(=O)CN1CCN(CC(=O)O)CCN(CC(=O)O)CCN(CC(=O)O)CC1)C(=O)N[C@H](C(=O)N[C@H](C(=O)N[C@@H](CCCCN)C(=O)N[C@H](C(=O)N[C@@H](CC(N)=O)C(N)=O)C(C)C)C(C)C)[C@@H](C)O [copper-64 labelled],radio-RP-HPLC,,MeCN/water TFA gradient,longer means more hydrophobic,7.48 min
C[C@H](N)C(=O)N[C@@H](Cc1c[nH]c2ccccc12)C(=O)N[C@@H](CCC(N)=O)C(=O)N[C@@H](Cc1c[nH]c2ccccc12)C(=O)N[C@@H](CCCNC(=N)N)C(=O)N[C@@H](Cc1c[nH]c2ccccc12)C(=O)N[C@@H](CCC(N)=O)C(=O)N[C@@H](Cc1c[nH]c2ccccc12)C(=O)N[C@@H](CCCNC(=N)N)C(N)=O,RP-HPLC C18,,hydrophobicity measure,,6.6 min
